Published values gathered from unrelated publications.
Numbered parts are unrelated; each lists some results of a single study. Positions count from the first letter of the parent shown.

Block 1
Target: Probable WRKY transcription factor 11, DNA-binding domain (WRKY11, Arabidopsis thaliana, UniProt Q9SV15, residues 228-325)
Method: DNA-protein interaction ELISA
Form: double-stranded DNA, one strand shown
Sample: in vitro, bacterial lysate
Tested at: not given
Setting: whole dsDNA probe, crude lysate protein
Baseline: highest signal in screen
Reading: higher = stronger binding
Target sequence (chain): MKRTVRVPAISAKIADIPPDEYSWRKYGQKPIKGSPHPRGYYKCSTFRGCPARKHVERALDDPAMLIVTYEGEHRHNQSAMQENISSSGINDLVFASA
| Strand | relative absorbance |
| --- | --- |
| AAAAAAGCCGTGGGTGATGGTCACAGAAAA | 13.8 % of maximum |
| AAAAAAACTATAGTCTTTGTCATGATAAAA | 17 % of maximum |
| AAAAAATCGCACTGCCGCCGATGGCTAAAA | 15.3 % of maximum |
| AAAAAATATTCGCCGGTAGCCACGCTAAAA | 13.8 % of maximum |
| AAAAAAAATACTGCGCACTTGCACTCAAAA | 14.7 % of maximum |
| AAAAAATTTTGTTTTTGCTTTTCCTTAAAA | 9.8 % of maximum |
| AAAAAATTGCACCTGATACTAGGGTTAAAA | 15.8 % of maximum |
| AAAAAATGCCGAGACCCCATGCCGGCAAAA | 12.7 % of maximum |
| AAAAAACACTGCACTATTGGGAGTTCAAAA | 14.1 % of maximum |
| AAAAAATATGTAGCTGCCGTTACGCTAAAA | 11.2 % of maximum |
| AAAAAAATATTTGAGCTAGGTTATCAAAAA | 14.1 % of maximum |
| AAAAAAGTCCATAAACTAAATTGGATAAAA | 14.1 % of maximum |
| AAAAAACCTACGATGGTTCTGATCTTAAAA | 16.4 % of maximum |
| AAAAAATCCCCCCGTTTCACTCTTGCAAAA | 16.1 % of maximum |
| AAAAAAGACACTCTAATTCCGTAGGCAAAA | 10.7 % of maximum |
| AAAAAAAAGCTTCGGAGTCTTGAGAAAAAA | 19 % of maximum |
| AAAAAACCTTACCTCATCCCTATCCCAAAA | 14.7 % of maximum |
| AAAAAAGATGATTAGTAATTGCGGAAAAAA | 19.9 % of maximum |
| AAAAAAACCTCTTTATTCTCGATTGTAAAA | 15.8 % of maximum |
| AAAAAAGGAAAACGAGTTCATCTGGTAAAA | 14.1 % of maximum |
| AAAAAACTACCTCTACTCTAGCCTTAAAAA | 13.8 % of maximum |
| AAAAAAGCTAGTCGATTCGGCTTAGAAAAA | 16.1 % of maximum |
| AAAAAACTGGCGACTGCCAGTGGTAGAAAA | 10.4 % of maximum |
| AAAAAAGTCTAGTCGTAAAAA | 18.7 % of maximum |
| AAAAAACGCTTTCAGTTTTGATCTTAAAAA | 12.7 % of maximum |

Block 2
Target: NFE2L3, bZIP domain (human)
Method: DHFR protein complementation
Sample: yeast
Setting: single substitutions, most at no-binding floor
Baseline: wild-type JUN-FOS pair
Reading: higher = stronger binding
Starting sequence: JUN, bZIP domain (human); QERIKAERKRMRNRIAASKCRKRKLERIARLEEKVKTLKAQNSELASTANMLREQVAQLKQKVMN; partner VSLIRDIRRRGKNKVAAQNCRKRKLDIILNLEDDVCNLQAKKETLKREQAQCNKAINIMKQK
| Substitution | binding fitness [natural log] |
| --- | --- |
| E54T | -1.58 |
| Q55V | -1.51 |
| I28D | -1.55 |
| A46C | -1.4 |
| T48W | -1.41 |
| A46P | -1.48 |
| R30C | -1.52 |
| A40S | -1.47 |
| A49F | -1.51 |
| K34P | -1.49 |
| A40P | -1.51 |
| V56Q | -1.49 |
| E32H | -1.27 |
| V35N | -1.45 |
| K36M | -1.44 |
| S47Q | -1.53 |

Block 3
Target: RNA binding protein fox-1 homolog 2, RRM domain, GST-SBP tag (RBFOX2, Homo sapiens, UniProt O43251-10, residues 100-194)
Method: RNA Bind-n-Seq
Form: RNA
Sample: in vitro
Tested at: 365 nM
Setting: natural RNA segment, single round, ends assumed
Baseline: no-protein control
Reading: higher = stronger binding
Construct (chain): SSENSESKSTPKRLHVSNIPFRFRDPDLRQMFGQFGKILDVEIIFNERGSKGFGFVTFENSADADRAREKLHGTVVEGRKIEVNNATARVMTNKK
| Strand | RBNS enrichment (R) |
| --- | --- |
| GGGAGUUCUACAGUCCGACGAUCGGGAGAAGAGAGGGUUUCCCUACAUAUCCCCAGAGAAAUCAGGUGACUUUUUCCCGGAGAUGGGGGUGGGGGAUGUUUAGGUCCCACUAUGAUGCAAGCAGCCAUGACCCUGGAAUUCUCGGGUGCCAA | 0.677 |
| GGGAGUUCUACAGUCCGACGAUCUGAGCCCAAAACGGGAAUAUUAGUUUUAUGUCGGAGGUGUGUUCCAAGUUUGUCAAUGAGGCUAUAGCCUCAAGAAGAUGCCAUCUGCCUGAAUGUUGACAUGCCAGCGGUGGAAUUCUCGGGUGCCAA | 0.63 |
| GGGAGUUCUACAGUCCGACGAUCUUCUAGAGGCGUCACUGUAUGUAGUUCAUGGCUACUGUACUGACAGCGAGAGCAUGUCCAUCUGUUGGACAGCACUAUUCUAGAGAACUAAACUGGCUUAACGAGUCACAUGGAAUUCUCGGGUGCCAA | 1.23 |
| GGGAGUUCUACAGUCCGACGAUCCUGUUUCUGACAAACUAUCAAGACAUUCCGUCCCUCAUCCACCUCAGCUCCCAAAGGCCCACUGCAGUGGUGGUUCAGUGAGCACUCUGAUGAGUGCUGAUGGGCUAACCUGGAAUUCUCGGGUGCCAA | 0.28 |
| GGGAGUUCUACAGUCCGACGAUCCGUGCCAGCGUGAAGCUGGUGAAGACCUGCCAGGAGGCAGCCACAGGCGAGUGCCAGCAGUGUUACUGCCGCCCCAUGUGGUGCCUCACCUGCAUGGGCAAGUGGUUCGCUGGAAUUCUCGGGUGCCAA | 2.14 |
| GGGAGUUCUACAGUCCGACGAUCUUCUUGCUGAUCACAUUGACACUGUCUGUGUUUGAUUUGCUGAGCUCUUGGAUGUUGGGAGUGUAGCAGGCACAGGAGGUACCUCUGCAGAAGGAAGGCGGAGGGUGGAGUGGAAUUCUCGGGUGCCAA | 1.43 |
| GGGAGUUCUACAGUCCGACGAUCAUACCAUGGGUGCUGUGACACUAACAGUCAUUGAGAGGUGGGAGGAAGUCCCUUUUCCUUGGACUGGUAUCUUUUCAACUAUUGUUUUAUCCUGUCUUUGGGGGCAAUGUUGGAAUUCUCGGGUGCCAA | 0.451 |
| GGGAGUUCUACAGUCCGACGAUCUGACUUUCCUGUUGAAGAGAUUACCUACGUCUGGCCAGAGGAGAGAAUUCAGAGCACGGAACUUUCCAAGAACUGGUGUUAACAUCUUGUACUGUGGCCACGAUUUGUCCUGGAAUUCUCGGGUGCCAA | 0.401 |
| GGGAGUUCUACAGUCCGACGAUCUUGCAUCAGUUUUGGUCUGCCUUAUGAGUUCUGUUUUGAACAAGUGUAACACACUGAUGGUUUUAAUGUAUCUUUUCCACUUAUUAUAGUUAUAUUCCUACAAUACAAUUUGGAAUUCUCGGGUGCCAA | 0.876 |
| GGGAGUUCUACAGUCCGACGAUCUUCCCUGGGGGAGAAACCCUCUUGGCUAAUGGCUCUUCCCUGGCAUUAUCAAUAACCACCCGGGGACUCUCUGGCUUUCAGAUCCAUCUGCCUGAGACCCCAAGGUCCUCUGGAAUUCUCGGGUGCCAA | 0.33 |
| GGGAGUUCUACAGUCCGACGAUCCCAUGAAUUAAAUGUUUCCUGUGUUAAUCAGUAUUCUUAAAUUAAAAGAAAAUGUUUAUAAUGGAAAUGUCAGAGUGAAUGUGGGCUUUUUCUGGAGGUUGCAUUAAUUCUGGAAUUCUCGGGUGCCAA | 2.28 |
| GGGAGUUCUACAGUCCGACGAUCUCUCUUCCAUCUUCUGUGAGUAGGGUUUGGCUUUGUAUCCCUCCCUUGAUUGUUUCCAUACCACUCAAGCCUUUGCUUGAAGAACAUGCUCAAUAAAUGUUUCAUGACUGUGGAAUUCUCGGGUGCCAA | 0.568 |

Block 4
Target: Interferon regulatory factor 7, full length, phosphomimetic (IRF7, Homo sapiens, UniProt Q92985, residues 1-503, S471D/S472D/S475D/S476D/S477D/S483D/S484D/S487D)
Method: protein-binding microarray
Form: double-stranded DNA, one strand shown
Sample: in vitro
Tested at: 2200 nM top
Setting: 60-bp whole probe
Added: salmon DNA 0.4 mg/ml
Baseline: random background probes
Reading: higher = stronger binding
Constant ends, left off below: GCCTAGCAC … GTCTTGATTCGCTTGACGCTGCTG
Residues (chain): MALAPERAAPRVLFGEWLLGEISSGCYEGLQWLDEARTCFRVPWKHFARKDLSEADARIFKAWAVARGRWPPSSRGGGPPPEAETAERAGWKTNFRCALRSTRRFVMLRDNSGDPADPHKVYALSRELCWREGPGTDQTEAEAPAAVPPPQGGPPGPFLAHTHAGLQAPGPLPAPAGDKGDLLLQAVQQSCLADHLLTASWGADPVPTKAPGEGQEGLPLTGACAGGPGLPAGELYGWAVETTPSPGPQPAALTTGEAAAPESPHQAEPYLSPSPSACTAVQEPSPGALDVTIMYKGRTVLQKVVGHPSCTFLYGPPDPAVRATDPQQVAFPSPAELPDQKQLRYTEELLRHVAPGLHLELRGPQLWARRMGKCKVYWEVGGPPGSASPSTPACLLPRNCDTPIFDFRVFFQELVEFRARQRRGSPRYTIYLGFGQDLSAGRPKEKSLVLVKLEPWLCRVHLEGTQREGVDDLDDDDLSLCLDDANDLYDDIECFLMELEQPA
| Strand | fitted relative affinity [z-score] |
| --- | --- |
| CCCAATAATCTTTTCACTTTGTGCTAG | 2.12 |
| TCAGATGTGGGACTCACACTGTGCTAG | 0.125 |
| TTAGAAATTTCTTTCTAATTGTGCTAG | 0.696 |
| TTACATTTCGGGTTTCGATTAGTGCTA | 6.3 |
| GACGATTTCAGTTTTGAGACGTGCTAG | 2.05 |
| ATCTCTTTCCTTACTTCCCAGTGCTAG | 3.08 |
| TTACATTTCGGGTATCGATTAGTGCTA | 3.47 |
| GACAGTATCGACTTTCGGGACGTGCTA | 3.47 |
| TTACGTTTCGGTTCCGGTTAGTGCTAG | 9.81 |
| TTAGATTTCGCGTATCGATTAGTGCTA | 1.27 |
| TTAGATTTCGGGTTTCGATTTGTGCTA | 9.4 |
| GACCATTTCAGACTGGAGACGTGCTAG | 0.553 |
| GGAAAAATGATGTTTTAGGTCGTGCTA | -0.561 |
| GACGATATCAGTATCGAAACGTGCTAG | 0.593 |
| TCCTTTTAATTTTTAACGAGGTGCTAG | 1.03 |
| GACGGCATCCTTCTCCTGACGTGCTAG | 0.361 |
| TTAGGAATCGGGACTGGGTTAGTGCTA | -0.705 |
| GACGATTTCAGTCTCGAGACGTGCTAG | 0.933 |
| TTAGGTCTCAGTTTCGGTTAGTGCTAG | 7.13 |
| GACGGATTGGGGTTTCGGGACGTGCTA | 1.29 |
| TTAGGACCGGGTTTCGGTTAGTGCTAG | 3.58 |
| TTAGATATCAGTCTCGACTAGTGCTAG | -0.0721 |
| TTAGGTTTCGGTAGCGGTTAGTGCTAG | 3.08 |
| TTAGAACTGGGGTTTTGATTAGTGCTA | 0.287 |

Block 5
Target: Histone acetyltransferase KAT6A, winged helix 2, GST fusion (KAT6A, Homo sapiens, UniProt Q92794, residues 85-181)
Method: protein binding microarray
Form: double-stranded DNA, one strand shown
Sample: in vitro
Tested at: not given
Setting: 8-mer, flanks averaged, mean of 2 arrays, mostly near background
Baseline: not given
Reading: higher = stronger binding
Residues (chain): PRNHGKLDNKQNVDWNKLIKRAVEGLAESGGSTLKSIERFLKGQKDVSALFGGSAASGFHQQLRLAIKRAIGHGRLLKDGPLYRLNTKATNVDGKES
| Strand | E-score |
| --- | --- |
| GAACACAC | 0.0593 |
| CAACCGGG | 0.157 |
| CAAGGTCC | 0.0868 |
| CGGGCAAC | 0.168 |
| CATTCAAA | 0.124 |
| CCTTCGCA | 0.0367 |
| ACCCTAAC | -0.0111 |
| ACGCCCCG | 0.0878 |
| GCACGCGA | 0.0793 |
| AGGAAACG | -0.0862 |
| AGTATCTG | -0.108 |
| ACATAGAA | -0.137 |
| GGAGTGGA | -0.0299 |
| ATCAAATA | -0.115 |
| CAAGACGC | 0.053 |
| GCACAGGA | 0.0488 |
| CACGCAGC | -0.0279 |

Some of these lines once more (block 2):
| Substitution | binding fitness [natural log] |
| --- | --- |
| Q55V | -1.51 |
| I28D | -1.55 |
| A46C | -1.4 |
| T48W | -1.41 |
| A46P | -1.48 |
| R30C | -1.52 |
| A40S | -1.47 |
| A49F | -1.51 |
| K34P | -1.49 |
| A40P | -1.51 |
| V56Q | -1.49 |
| E32H | -1.27 |
| V35N | -1.45 |
